Results pooled from the literature.
A part holds a random share of what one study measured.

Sample 1
Target: Histone acetyltransferase KAT6A, both winged helices, GST fusion (KAT6A, Homo sapiens, UniProt Q92794, residues 1-181)
Technique: protein binding microarray
Form: double-stranded DNA, one strand shown
Matrix: in vitro
Concentration: not given
Setting: 8-mer, flanks averaged, mean of 2 arrays, mostly near background
Baseline: not given
Direction: higher = stronger binding
Residues (chain): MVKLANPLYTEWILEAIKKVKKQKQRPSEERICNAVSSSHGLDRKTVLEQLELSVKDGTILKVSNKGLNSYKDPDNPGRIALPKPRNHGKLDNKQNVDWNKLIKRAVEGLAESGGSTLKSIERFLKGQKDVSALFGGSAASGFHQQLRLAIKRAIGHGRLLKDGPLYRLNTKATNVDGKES
Strand	E-score
TTAGCGAA	0.12
ACTCCATG	-0.061
CTGCCTCC	-0.0693
CTAGTGCC	0.136
CTGTTAAG	0.0506
CCGAGTGA	0.00492
GCGCGACC	0.296
AGGACTAT	-0.122

Sample 2
Substance: PhoQ, residues 284 288 289 292 302 303 NLCILV
Technique: Sort-seq
Item: YFP reporter
Matrix: E. coli
Setting: PhoQ-PhoP variant library
Added: 10 µM Mg2+
Baseline: high Mg2+ state
Direction: higher = stronger signaling
target	fold induction
PhoP, residues 12 14 15 18 19 NYFRM (Escherichia coli, UniProt P23836)	14.4
PhoP, residues 12 14 15 18 19 QYFSL (Escherichia coli, UniProt P23836)	4.33
PhoP, residues 12 14 15 18 19 TQALL (Escherichia coli, UniProt P23836)	13.5

Sample 3
Target: RNA binding protein fox-1 homolog 2, RRM domain, GST-SBP tag (RBFOX2, Homo sapiens, UniProt O43251-10, residues 100-194)
Technique: RNA Bind-n-Seq
Form: RNA
Matrix: in vitro
Concentration: 365 nM
Setting: natural RNA segment, single round, ends assumed
Baseline: no-protein control
Direction: higher = stronger binding
Constant ends, left off below: GGGAGUUCUACAGUCCGACGAUC … UGGAAUUCUCGGGUGCCAA
Construct (chain): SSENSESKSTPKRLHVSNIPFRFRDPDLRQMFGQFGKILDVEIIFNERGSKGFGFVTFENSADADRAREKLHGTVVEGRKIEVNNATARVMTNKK
Strand	RBNS enrichment (R)
CUCUCCCGUUGAGCACUAGCAGCUGGAGGAGUUGGGAGUUCAUGGCUAUCAUGGUUGUGUUAAUCGAUUGUGGGGAUGAAAUGUCAUUGUGUAUGGAAGGCGGGGCUCAU	0.957
UCCCGGCCCGCCUGCCCAGACUGAUGAGCACAUCUCUCUGCCCUCUCCCUGUGUUCUGGGCUGGGGCCACCUUUGUGCAGCUUCGAGGACAGGAAAGGCCCCAAUCUUGC	0.425
GCUCCUUUGUAAGCUUCAGGCCACACCCACCCCCUCAGUCCAUAUCUGCACUUGCUCAUAGGCCGGUUCCUUUUAUUUGAAUAAUAAAUAAAGCUAGUUCUAUUGAAAUG	0.929
CCUAAGUGAUUCAGAAGAGAGGAGGGAAGUUGUGCACUCUGAAAAUGCAUGAAAAACAAAGGCAAAAACUAGUGGGAAAUGUGUAGAACUGUUAACUGAGAUGGCUUCGA	16.9
GGAUUGUAACAGGAUUGAUGGCACUUAGGGACAUCUCAUCCAACCGGGACUUAAAUUUCACACUAGAAAUGAGCUCCAGUCUUAACUCAGUGAAUGGGAAACACAUGUUC	0.356
CCUGCCAGAUAUUGCCCAGCGUGAGGAGCGAUCUCAGCAGGCCUAUAAGAGUCAGCAUGGAGAGCCCCUGCUAAUGGAGUACAGCCGCCAGGAGCUACUCAGGAAGGAAC	0.931
AAUGGCCAUCCUCAGCAGGGUGGAGGGAGUGUGCGAGAAACCAGACACUUUGGUUUCUGUAAUCUUCACAGUGUUUAGGAAAAGAGAAAACAAAUCAAACAGCGCACACA	0.349
UUUGCUUCCUGUAUAUUCUUAUACAUGUUUUUGACUCCAGAAAAAUGACACCUUUAGACUGUUUCAGAGCCAAUGAUGAUAUUUCCUUUAAAUAAUUAUUACAUUAUUCU	0.638
CUUUCACGUUGUUUUCGCUGCUAUUGGAGGGUCAGUUUUGUUUUGUUUUGUUUUACAAUGUCAGACUGCCAUGUUCAAGUUUUAAUUUCCUCAUAGAGUGUAUUUACAGA	0.977

Sample 4
Target: Sal-like protein 4, full length isoform A (SALL4, Homo sapiens, UniProt Q9UJQ4, residues 1-1053)
UniProt Q9UJQ4, sequence (whole entry, looked up): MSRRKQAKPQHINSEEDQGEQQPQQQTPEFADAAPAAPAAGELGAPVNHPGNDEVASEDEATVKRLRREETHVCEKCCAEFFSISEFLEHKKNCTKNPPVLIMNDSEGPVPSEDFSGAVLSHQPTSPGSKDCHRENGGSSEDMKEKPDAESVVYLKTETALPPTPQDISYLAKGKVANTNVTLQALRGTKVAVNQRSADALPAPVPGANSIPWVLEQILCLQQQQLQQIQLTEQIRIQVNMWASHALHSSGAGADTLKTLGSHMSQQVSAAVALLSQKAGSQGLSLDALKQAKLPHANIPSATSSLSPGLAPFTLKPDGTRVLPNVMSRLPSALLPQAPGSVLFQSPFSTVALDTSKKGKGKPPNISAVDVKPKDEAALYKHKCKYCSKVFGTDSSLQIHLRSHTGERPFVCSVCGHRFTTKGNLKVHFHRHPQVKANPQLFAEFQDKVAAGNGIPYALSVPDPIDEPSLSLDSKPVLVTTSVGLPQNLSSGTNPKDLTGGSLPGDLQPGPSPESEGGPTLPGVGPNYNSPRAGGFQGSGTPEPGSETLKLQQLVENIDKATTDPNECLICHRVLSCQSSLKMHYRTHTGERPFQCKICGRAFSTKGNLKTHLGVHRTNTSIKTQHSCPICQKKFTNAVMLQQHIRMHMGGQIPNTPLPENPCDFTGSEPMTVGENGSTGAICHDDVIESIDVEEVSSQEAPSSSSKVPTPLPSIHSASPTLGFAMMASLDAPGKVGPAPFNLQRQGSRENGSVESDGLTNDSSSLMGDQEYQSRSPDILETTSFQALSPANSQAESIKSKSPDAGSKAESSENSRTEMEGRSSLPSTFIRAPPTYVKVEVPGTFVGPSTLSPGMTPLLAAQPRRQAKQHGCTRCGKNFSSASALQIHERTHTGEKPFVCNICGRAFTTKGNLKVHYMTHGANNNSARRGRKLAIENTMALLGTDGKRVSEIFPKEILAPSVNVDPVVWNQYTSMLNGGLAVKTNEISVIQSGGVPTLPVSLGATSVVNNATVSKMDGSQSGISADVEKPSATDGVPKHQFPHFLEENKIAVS
Technique: universal PBM
Form: double-stranded DNA, one strand shown
Matrix: in vitro
Concentration: 600 nM
Setting: 8-mer, flanks averaged, mean of replicates
Direction: higher = stronger binding
Strand	E-score
ACGTGCTC	-0.224
CGTCCGCC	-0.317
AATAGTTC	0.291
CTCCTACC	-0.0662
AAGACTGA	0.116
ACTAGTAT	0.194

For quick reference, copied from above (sample 3):
Strand	RBNS enrichment (R)
UCCCGGCCCGCCUGCCCAGACUGAUGAGCACAUCUCUCUGCCCUCUCCCUGUGUUCUGGGCUGGGGCCACCUUUGUGCAGCUUCGAGGACAGGAAAGGCCCCAAUCUUGC	0.425
GCUCCUUUGUAAGCUUCAGGCCACACCCACCCCCUCAGUCCAUAUCUGCACUUGCUCAUAGGCCGGUUCCUUUUAUUUGAAUAAUAAAUAAAGCUAGUUCUAUUGAAAUG	0.929
